Measurements from different studies.
Each numbered part is a random draw from the data of one study; scales do not carry over between parts.

Set 1 — method: RNA Bind-n-Seq; form: RNA; matrix: in vitro; tested at: 365 nM; relative to: no-protein control; direction: higher = stronger binding
Target: RNA binding protein fox-1 homolog 2, RRM domain, GST-SBP tag (RBFOX2, Homo sapiens, UniProt O43251-10, residues 100-194)
Setting: natural RNA segment, single round, ends assumed
Target sequence (chain): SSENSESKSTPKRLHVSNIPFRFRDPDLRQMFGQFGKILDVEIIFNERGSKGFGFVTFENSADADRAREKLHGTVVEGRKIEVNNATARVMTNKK
Under “RBNS enrichment (R)”, `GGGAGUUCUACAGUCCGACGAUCAGAUCCAAAUUUCCAUUGUCUUGCAAGCAAAGCACGUAUUAAAUAUGAUCUGCAGCCAUUAAAAAGACACAUUCUGUAAAUGAGAGAGCCUUAUUUUCCUGUAACCUUCAUGGAAUUCUCGGGUGCCAA` is recorded as 1.27.
`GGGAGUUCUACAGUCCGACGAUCGCCUUGGGUGUUGGCCACAGGGUCAAGGGACUCUGGCCUCAGCCCAGAAGUGAGGGGAAGCUAUACAGAGCAGCUGUGGGAACCCCAGGGGCUUCCCUACCUCAGGCAGGUGGAAUUCUCGGGUGCCAA`: “RBNS enrichment (R)” 0.47.
For `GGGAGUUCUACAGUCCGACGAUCGACUGGCCCUUCAAGGAGGUGGAAGUGGUUUUCUCUGUGUUUGAGUCAUUGAGUAUUGAAGCCAUGACCUGGACUUCUGAAGGCUGUGACUUCACUAGAGCUAAGACACUUGGAAUUCUCGGGUGCCAA`, “RBNS enrichment (R)” read 0.715.
For `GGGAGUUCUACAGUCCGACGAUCUAUGAACUGUACUGGCUGUUGACCACCAGACACCUGACCGCAAAUAUCUUUUCUUGUAUUCCCAUAUUUCUAGACAAUGAUUUUUGUAAGACAAUAAAUUUAUUCAUUAUUGGAAUUCUCGGGUGCCAA`, “RBNS enrichment (R)” read 0.228.
`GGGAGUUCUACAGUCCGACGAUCGCAACUAUGAAUGAAAACAAAACACCACAAAACAGACUUCACUAACACAGAAAAACAGAAACUGAGUGUGAGAGUUGUGAAAUACAAGGAAAUGCAGUAAAGCCAGGGAAUGGAAUUCUCGGGUGCCAA`: “RBNS enrichment (R)” 1.77.
`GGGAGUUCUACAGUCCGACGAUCUCACGGGGAACACACAGCGUUAAGUGUCUUUCCUUUAUUUUUUAAAGAAUCAAUAGCAGCAUCUAAUCUCCCAGGGCUCCCUCCCACCAGCACCUGUGGUGGCUGCAAGUUGGAAUUCUCGGGUGCCAA` — result for “RBNS enrichment (R)”: 1.13.

Set 2 — method: protein-binding microarray; form: double-stranded DNA, one strand shown; matrix: in vitro; tested at: 250 nM; setting: 60-bp whole probe; with: salmon DNA 0.4 mg/ml; relative to: random background probes; direction: higher = stronger binding; constant ends, left off below: GCCTAGCAC … GTCTTGATTCGCTTGACGCTGCTG
Target: Interferon regulatory factor 7, full length, phosphomimetic (IRF7, Homo sapiens, UniProt Q92985, residues 1-503, S101K/S471D/S472D/S475D/S476D/S477D/S483D/S484D/S487D)
Sequence of UniProt Q92985 (whole entry, unmodified, looked up): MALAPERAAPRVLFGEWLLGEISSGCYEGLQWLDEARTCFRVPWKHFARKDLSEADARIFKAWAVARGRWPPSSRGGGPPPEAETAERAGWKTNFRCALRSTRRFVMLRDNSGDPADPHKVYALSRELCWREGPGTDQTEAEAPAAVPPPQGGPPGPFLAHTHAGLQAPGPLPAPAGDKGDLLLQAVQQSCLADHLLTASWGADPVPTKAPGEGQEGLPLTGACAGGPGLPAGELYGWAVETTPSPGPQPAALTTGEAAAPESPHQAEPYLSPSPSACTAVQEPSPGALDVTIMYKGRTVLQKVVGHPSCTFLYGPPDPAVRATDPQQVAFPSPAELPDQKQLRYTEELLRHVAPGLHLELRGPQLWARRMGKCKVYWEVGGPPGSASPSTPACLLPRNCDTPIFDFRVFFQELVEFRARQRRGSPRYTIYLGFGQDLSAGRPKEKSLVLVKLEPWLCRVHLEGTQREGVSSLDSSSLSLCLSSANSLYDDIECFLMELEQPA
The log fluorescence of `TTAGGACTGCTTCTCCTTTTGTGCTAG` is reported as 0.713 z-score.
For `TTAGATCTCAGTCGCGATTAGTGCTAG`, the log fluorescence was 0.322 z-score.
With `GACGATTTCGGGCTTCGAGACGTGCTA` the log fluorescence was 0.258 z-score.
With `TCAAAAATGAATATTAGACTGTGCTAG` the log fluorescence was -0.169 z-score.
With `TCAGTTTTCTTTTCCATACTGTGCTAG` the log fluorescence was 4.07 z-score.
`TTAGATTTCGGGATTGGATTAGTGCTA` has a log fluorescence of 0.446 z-score.
`TCATGTCCTCCTCTCTCACTGTGCTAG` has a log fluorescence of 0.733 z-score.
With `TCACCTCTGGGATCCCAGACTGTGCTA` the log fluorescence was 0.0318 z-score.
The log fluorescence of `TCCCATTCTGAATTCGAATGGTGCTAG` is reported as 1.52 z-score.
`TCGTTATCCTATATCTGAACGTGCTAG` has a log fluorescence of 2.8 z-score.
With `GACGGTTTCGGGGCTGGGGACGTGCTA` the log fluorescence was 2.28 z-score.
`CTGTGTGTCAGGTTTACTAGGGTGCTA` gave a log fluorescence of -0.444 z-score.
`TCATACCTGTATATCTTACTGTGCTAG` gave a log fluorescence of 0.123 z-score.
`TTAGGACTGGGGACTAGGTTAGTGCTA` gave a log fluorescence of -0.294 z-score.
With `GCACGTGACTGTTTCCCAATGTGCTAG` the log fluorescence was 0.41 z-score.
The log fluorescence of `GACGGTATCCTAGTGCTGACGTGCTAG` is reported as -0.373 z-score.

Set 3 — method: competition protein-binding microarray; form: double-stranded DNA, one strand shown; matrix: in vitro; tested at: 2 µM; with: Cbf1 competitor, 0.05 µM; direction: higher = stronger binding
Target: Phosphate system positive regulatory protein PHO4, full length, GST-tagged (PHO4, Saccharomyces cerevisiae, UniProt P07270, residues 1-312)
Setting: whole 60-bp probe, lowest competitor level
Construct (chain): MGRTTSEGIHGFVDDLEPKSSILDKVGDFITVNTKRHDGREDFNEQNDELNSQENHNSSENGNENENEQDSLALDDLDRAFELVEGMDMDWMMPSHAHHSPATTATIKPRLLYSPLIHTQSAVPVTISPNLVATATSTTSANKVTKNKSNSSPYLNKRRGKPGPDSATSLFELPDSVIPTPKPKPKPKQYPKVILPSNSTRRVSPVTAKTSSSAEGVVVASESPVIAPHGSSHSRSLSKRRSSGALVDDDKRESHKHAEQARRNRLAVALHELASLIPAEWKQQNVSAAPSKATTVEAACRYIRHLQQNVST
For `TCCAGAATATAATAATATCGTATGGACCATCTCGCTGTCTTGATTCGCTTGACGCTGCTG`, the fluorescence intensity was 3320 a.u.
The fluorescence intensity of `GTCTTGTCTCATTCCCACGTGTTTTTCCCCACTTCAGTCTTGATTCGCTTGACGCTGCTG` is reported as 18800 a.u.
`CGGGGTTAAGTTTGCATTGTGGGTGGCTTGCAGCAGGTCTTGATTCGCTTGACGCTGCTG` gave a fluorescence intensity of 6190 a.u.
`GAGTGCTTTGTTTCTTCCGTGATGGTTTAATGGTCAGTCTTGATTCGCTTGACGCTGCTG` gave a fluorescence intensity of 3610 a.u.
`CTTTCCCGATCTTGTGTCGTGGGTGTAGCACATTTGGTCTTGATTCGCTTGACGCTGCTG` gave a fluorescence intensity of 7070 a.u.
For `TAGGACATTGTACGACGCGTGTCGGACCATGGAAAAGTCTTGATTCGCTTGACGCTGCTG`, the fluorescence intensity was 6900 a.u.
For `CAATTCTTTTACCATCACGTCACCTAACCAACCATTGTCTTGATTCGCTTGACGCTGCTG`, the fluorescence intensity was 5190 a.u.
For `TGCCATTGATCCAGTCTCGTGACTCGGACAGAACTGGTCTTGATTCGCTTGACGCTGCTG`, the fluorescence intensity was 5830 a.u.
For `CATACCCAACCTTGGTCAGTGGGTGAAGATATTTGTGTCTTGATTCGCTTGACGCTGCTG`, the fluorescence intensity was 4230 a.u.
`CAGCCTCCATTCGGTAGCGTGCTGTATGTCAACAAAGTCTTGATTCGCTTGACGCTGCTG` gave a fluorescence intensity of 6980 a.u.
For `GTCTTGTCTCATTGATGCGTGGGTGTCCCCACTTCAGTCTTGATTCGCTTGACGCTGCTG`, the fluorescence intensity was 8780 a.u.
For `ATGGTTAACAGTAATCTCGTGCTGTCAAACATAAAAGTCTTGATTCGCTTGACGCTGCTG`, the fluorescence intensity was 9410 a.u.
`CATACCCAACCTTGACGCGTGGGTGAAGATATTTGTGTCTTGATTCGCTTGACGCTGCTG` has a fluorescence intensity of 10200 a.u.
`AATGTCAGTATTTATAGCGTGATGGTTCATTACCCGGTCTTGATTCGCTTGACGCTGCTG` has a fluorescence intensity of 5170 a.u.
The fluorescence intensity of `AGCACCCTGGTATTTCTCGTGATGGTCTGCCCTTCAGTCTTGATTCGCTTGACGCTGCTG` is reported as 4040 a.u.
With `TTTAGGTACAACATACTCGTGTGTTGCTCACTTTGCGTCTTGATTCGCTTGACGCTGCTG` the fluorescence intensity was 7950 a.u.
For `AAGACGAAATTCTTGTTCGTGCCGATGTTGCCCTTTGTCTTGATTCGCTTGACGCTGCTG`, the fluorescence intensity was 5580 a.u.
`GGAGCAGGACTCTGCCGCGTGTCCTTCCCGGCTCCGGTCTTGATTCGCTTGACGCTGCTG` gave a fluorescence intensity of 8410 a.u.

Set 4 — method: RNA Bind-n-Seq; form: RNA; matrix: in vitro; tested at: not given; setting: RNA with constant flanks, ends assumed; relative to: input RNA pool; direction: higher = stronger binding
Target: RING finger protein unkempt homolog, zinc fingers 1-6, GST-SBP tag (UNK, Homo sapiens, UniProt Q9C0B0, residues 30-357)
Sequence of UniProt Q9C0B0 (30-357, looked up): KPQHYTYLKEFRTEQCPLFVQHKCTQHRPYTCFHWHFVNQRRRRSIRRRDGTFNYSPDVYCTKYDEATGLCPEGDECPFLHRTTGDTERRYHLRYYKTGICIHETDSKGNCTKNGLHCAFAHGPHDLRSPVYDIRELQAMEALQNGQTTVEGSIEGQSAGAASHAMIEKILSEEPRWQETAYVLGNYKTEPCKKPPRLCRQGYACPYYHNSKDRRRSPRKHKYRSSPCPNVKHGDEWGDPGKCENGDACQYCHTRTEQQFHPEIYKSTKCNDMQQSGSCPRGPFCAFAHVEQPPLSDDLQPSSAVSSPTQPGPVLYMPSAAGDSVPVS
`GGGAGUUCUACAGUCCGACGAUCUCUGCCACCCAGCAGAAGAAAAACACCAAACUCUCUAGCAAAACCACUGCUAAGUUAUCCACCCGUGCUAAAAGAAUUCAGAAGGAGCUAGCUGAAAUAACCCUUGAUCCUCCUCCUAAUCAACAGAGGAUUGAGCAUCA` has a bound/input enrichment of 0.546 ratio.
With `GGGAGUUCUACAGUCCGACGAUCGAAGGUUUUUCAGAAUCCAAGAAAAGGUCAUCAGAAGAUGAAAAUGAAAAUAAAACCGAGUUCCGGAAGAAAGGAGGAUUUGAAGGGGGAGGAUUCCUUGGAAGAAAGAAAGUUCCCUAUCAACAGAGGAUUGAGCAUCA` the bound/input enrichment was 0.208 ratio.
With `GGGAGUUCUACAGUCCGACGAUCAUCUUAUUACAGGGACUUGCUGUGCUUGCAAAGGAAAGACCACCAAAUCCCAUUGAAUUUCCCGCAUCUUAUCUUUUAAAAAACAAGGCACAGUUUGAAGAUCGAAACUGACUUAAUGGGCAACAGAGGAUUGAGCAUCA` the bound/input enrichment was 0.352 ratio.
`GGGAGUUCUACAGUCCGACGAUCGAUGUAAGUCAAAGACUUGUUACAUAGAGGGAAAAUGGACUGGGAUAGAGGACAGACUGACCGUUUCUUUCUUUCAUAUCACAUGUAUAGAGAAAUAAUUAUAUCAGAAACUCACAAACCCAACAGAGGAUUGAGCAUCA` gave a bound/input enrichment of 0.244 ratio.
With `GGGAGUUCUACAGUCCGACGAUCGAGUCAGCAUAUUUGAGAGGGCAGCGUUUUGCCAGUACCUAUCUUCUUUCUACAGAAGACCGCUUUUUAAGAAAUAAGAGUUCCACAUUGAGUGGCUGUCAGACACAGAUUUCACUGUGACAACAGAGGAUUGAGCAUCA` the bound/input enrichment was 0.279 ratio.
With `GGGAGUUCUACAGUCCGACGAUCUAUUAGUGUUGUACCAGCCUAUUAACCUCUUGUCUGUGCACAGCUUCAAAUGUUACCGUCCCGUCCGAUUUUUAUUUAAAAUAUGAAAAACUGCUUUUCCCAAGAUGUUUUUUAAAAACACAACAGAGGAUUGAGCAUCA` the bound/input enrichment was 0.653 ratio.
`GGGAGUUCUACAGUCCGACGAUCAUCAACCAAGCUGCUCUUCUCAGCAUCCCUGGCUUUGUGGAACGGCUUUGCAAACUGGCAACCCGGAAAGUGUCAGAGUCAACGGGCACAGCCAGCUUCCUUCAAGAACUGGAGGAGUGGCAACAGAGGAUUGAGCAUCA` has a bound/input enrichment of 0.111 ratio.
`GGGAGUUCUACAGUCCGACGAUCCCUCACCAAAAGGUUUCGGGAACUGGAGGAAGUAUUAAUGUACAACUCACCACUUCAUGCCACCGGAGGCUGAAGUUGACGUUGCCUUUUAAGCCUUUUACAUACACUGGUCAGUUCGGACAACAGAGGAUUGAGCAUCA` gave a bound/input enrichment of 0.262 ratio.

A few entries again (set 3):
For `GTCTTGTCTCATTGATGCGTGGGTGTCCCCACTTCAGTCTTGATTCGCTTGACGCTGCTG`, the fluorescence intensity was 8780 a.u.
For `AAGACGAAATTCTTGTTCGTGCCGATGTTGCCCTTTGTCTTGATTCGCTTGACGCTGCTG`, the fluorescence intensity was 5580 a.u.
For `TCCAGAATATAATAATATCGTATGGACCATCTCGCTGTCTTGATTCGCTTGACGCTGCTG`, the fluorescence intensity was 3320 a.u.
With `TTTAGGTACAACATACTCGTGTGTTGCTCACTTTGCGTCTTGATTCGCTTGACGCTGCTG` the fluorescence intensity was 7950 a.u.
